Experimental data from different studies.
Compare with care: the assays were run in different laboratories. Numbers after ± are the reported error.
5-hydroxytryptamine receptor 2A: 5-hydroxytryptamine receptor 2A (Rattus norvegicus, UniProt P14842)
Sequence of UniProt P14842 (whole entry, looked up): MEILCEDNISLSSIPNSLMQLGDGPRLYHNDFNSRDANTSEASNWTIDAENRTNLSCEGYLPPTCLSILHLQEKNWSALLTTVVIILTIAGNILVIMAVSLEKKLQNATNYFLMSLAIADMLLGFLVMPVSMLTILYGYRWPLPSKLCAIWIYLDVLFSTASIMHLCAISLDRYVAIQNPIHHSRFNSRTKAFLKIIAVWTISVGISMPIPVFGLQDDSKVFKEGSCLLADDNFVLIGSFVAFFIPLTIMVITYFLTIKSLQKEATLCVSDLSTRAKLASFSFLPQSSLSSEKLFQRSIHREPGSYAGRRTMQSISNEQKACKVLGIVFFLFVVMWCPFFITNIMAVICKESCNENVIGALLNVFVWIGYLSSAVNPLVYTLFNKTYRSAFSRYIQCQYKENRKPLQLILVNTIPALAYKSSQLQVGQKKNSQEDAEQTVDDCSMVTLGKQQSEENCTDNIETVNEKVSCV
CA12: Carbonic anhydrase 12 (CA12, Homo sapiens, UniProt O43570)
Sequence of UniProt O43570 (whole entry, looked up): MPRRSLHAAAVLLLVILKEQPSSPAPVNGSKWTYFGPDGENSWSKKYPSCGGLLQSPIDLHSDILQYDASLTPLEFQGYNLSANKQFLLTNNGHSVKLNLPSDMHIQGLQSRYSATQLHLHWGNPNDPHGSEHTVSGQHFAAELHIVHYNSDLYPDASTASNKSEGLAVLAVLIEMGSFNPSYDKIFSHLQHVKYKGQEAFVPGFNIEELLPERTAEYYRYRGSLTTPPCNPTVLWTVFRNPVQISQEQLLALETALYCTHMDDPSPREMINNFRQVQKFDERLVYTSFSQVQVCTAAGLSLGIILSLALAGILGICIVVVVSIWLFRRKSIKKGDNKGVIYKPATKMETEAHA
TACR1: Substance-P receptor (TACR1, Homo sapiens, UniProt P25103)
Sequence of UniProt P25103 (whole entry, looked up): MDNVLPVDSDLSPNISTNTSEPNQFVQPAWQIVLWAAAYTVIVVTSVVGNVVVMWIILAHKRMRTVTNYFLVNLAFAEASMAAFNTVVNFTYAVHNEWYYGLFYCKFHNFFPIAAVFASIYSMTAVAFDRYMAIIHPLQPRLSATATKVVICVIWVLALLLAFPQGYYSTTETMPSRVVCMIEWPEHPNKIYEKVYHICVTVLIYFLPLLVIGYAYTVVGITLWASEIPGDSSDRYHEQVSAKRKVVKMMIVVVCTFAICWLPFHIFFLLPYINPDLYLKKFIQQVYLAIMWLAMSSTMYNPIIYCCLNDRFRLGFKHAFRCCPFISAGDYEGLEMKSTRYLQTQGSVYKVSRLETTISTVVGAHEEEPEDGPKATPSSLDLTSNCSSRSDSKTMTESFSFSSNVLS
XDH: Xanthine dehydrogenase/oxidase (XDH, Bos taurus, UniProt P80457)
FUT6: 4-galactosyl-N-acetylglucosaminide 3-alpha-L-fucosyltransferase FUT6 (FUT6, Homo sapiens, UniProt P51993)
Sequence of UniProt P51993 (whole entry, looked up): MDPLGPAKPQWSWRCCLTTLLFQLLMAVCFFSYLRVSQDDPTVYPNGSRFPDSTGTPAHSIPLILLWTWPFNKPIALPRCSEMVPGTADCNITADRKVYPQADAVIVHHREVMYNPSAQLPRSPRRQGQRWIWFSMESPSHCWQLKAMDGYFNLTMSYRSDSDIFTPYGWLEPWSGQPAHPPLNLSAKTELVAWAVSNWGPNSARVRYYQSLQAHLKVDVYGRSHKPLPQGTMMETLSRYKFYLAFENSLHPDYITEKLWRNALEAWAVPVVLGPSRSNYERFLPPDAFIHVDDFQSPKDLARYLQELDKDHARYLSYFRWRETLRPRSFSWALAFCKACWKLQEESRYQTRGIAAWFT
Hypoxanthine-guanine-xanthine phosphoribosyltransferase: Hypoxanthine-guanine-xanthine phosphoribosyltransferase (Plasmodium falciparum, UniProt P20035)
Sequence of UniProt P20035 (whole entry, looked up): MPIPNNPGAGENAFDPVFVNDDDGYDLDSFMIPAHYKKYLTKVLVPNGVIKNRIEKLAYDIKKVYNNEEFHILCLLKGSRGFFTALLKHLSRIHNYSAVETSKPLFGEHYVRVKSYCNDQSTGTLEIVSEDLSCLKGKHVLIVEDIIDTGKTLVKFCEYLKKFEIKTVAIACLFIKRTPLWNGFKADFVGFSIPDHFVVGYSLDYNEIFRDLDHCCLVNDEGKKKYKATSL
FAP: Prolyl endopeptidase FAP (FAP, Homo sapiens, UniProt Q12884)
Sequence of UniProt Q12884 (whole entry, looked up): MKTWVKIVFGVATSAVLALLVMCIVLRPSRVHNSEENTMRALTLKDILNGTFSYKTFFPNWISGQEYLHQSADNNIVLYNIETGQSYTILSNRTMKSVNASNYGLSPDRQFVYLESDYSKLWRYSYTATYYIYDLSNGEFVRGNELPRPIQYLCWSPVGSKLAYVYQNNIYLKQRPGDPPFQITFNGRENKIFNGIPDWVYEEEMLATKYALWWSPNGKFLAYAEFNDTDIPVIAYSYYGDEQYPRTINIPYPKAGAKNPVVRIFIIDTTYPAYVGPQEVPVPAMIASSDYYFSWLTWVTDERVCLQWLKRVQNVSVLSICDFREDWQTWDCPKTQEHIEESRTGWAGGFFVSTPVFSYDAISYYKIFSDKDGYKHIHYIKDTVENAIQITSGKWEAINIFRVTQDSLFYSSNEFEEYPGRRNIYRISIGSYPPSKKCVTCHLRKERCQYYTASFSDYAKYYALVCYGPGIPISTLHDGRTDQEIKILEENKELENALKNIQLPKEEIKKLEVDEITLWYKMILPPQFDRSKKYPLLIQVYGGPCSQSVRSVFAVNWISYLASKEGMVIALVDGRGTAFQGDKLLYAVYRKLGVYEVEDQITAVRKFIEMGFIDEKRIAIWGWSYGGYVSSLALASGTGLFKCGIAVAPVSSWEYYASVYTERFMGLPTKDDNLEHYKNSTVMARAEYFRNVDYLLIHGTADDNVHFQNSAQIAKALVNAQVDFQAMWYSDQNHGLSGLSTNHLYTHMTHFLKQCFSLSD
Beta-lactamase CTX-M-14: Beta-lactamase CTX-M-14 (Escherichia coli, UniProt Q9L5C7)
MAPK8: Mitogen-activated protein kinase 8 (MAPK8, Homo sapiens, UniProt P45983)
Sequence of UniProt P45983 (whole entry, looked up): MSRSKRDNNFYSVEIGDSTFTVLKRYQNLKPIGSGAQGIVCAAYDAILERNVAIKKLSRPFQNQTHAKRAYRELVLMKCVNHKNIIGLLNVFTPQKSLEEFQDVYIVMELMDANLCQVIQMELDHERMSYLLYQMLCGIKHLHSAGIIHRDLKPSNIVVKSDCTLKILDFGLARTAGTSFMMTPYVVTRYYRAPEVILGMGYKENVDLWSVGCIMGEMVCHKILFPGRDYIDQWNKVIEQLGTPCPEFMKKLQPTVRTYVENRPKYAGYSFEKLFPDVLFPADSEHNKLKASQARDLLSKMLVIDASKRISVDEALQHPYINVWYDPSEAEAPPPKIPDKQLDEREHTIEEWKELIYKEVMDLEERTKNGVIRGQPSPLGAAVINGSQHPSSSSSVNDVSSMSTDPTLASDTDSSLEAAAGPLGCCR
CHRM4: Muscarinic acetylcholine receptor M4 (CHRM4, Homo sapiens, UniProt P08173)
Sequence of UniProt P08173 (whole entry, looked up): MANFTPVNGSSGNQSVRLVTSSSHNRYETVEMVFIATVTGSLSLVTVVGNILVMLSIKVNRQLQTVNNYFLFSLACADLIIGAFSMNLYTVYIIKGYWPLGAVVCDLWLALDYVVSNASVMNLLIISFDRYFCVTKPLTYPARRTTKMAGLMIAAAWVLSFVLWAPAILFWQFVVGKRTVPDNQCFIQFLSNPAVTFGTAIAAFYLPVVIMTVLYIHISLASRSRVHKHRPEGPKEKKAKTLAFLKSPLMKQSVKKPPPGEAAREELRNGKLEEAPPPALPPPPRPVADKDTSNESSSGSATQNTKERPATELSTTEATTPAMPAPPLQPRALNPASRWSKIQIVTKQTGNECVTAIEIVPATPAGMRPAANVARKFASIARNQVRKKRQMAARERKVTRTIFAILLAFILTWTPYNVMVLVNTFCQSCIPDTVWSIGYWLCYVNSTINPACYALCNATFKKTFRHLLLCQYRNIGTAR
BACE2: Beta-secretase 2 (BACE2, Homo sapiens, UniProt Q9Y5Z0)
Sequence of UniProt Q9Y5Z0 (whole entry, looked up): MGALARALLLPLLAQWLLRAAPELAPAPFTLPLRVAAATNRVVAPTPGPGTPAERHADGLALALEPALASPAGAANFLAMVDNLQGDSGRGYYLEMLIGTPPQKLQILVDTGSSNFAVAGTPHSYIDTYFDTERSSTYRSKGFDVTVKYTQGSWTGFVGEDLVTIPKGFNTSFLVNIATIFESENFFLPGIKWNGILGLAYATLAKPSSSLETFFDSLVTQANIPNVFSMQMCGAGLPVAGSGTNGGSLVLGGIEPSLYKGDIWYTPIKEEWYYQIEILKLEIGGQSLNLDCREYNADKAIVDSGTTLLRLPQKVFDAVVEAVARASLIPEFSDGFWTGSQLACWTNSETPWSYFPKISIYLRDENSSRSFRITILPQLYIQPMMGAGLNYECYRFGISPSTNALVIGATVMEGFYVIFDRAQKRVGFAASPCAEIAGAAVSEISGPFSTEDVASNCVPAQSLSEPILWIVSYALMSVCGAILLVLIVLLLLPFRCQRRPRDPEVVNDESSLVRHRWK
Muscleblind-like protein 1 with (CUG)12 RNA: Muscleblind-like protein 1, with (CUG)12 RNA (Homo sapiens, UniProt Q9NR56)
Sequence of UniProt Q9NR56 (whole entry, looked up): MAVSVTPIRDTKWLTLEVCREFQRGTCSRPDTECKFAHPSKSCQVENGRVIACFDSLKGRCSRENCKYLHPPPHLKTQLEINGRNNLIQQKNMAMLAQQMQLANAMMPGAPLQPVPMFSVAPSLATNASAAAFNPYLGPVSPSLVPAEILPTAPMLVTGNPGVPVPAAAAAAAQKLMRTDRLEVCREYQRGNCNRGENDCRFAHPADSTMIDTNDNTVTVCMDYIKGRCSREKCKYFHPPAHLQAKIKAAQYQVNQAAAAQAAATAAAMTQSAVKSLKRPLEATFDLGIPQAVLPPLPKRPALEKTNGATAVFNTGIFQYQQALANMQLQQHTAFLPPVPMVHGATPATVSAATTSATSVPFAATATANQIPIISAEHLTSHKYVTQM
CASP1: Caspase-1 (CASP1, Homo sapiens, UniProt P29466)
Sequence of UniProt P29466 (whole entry, looked up): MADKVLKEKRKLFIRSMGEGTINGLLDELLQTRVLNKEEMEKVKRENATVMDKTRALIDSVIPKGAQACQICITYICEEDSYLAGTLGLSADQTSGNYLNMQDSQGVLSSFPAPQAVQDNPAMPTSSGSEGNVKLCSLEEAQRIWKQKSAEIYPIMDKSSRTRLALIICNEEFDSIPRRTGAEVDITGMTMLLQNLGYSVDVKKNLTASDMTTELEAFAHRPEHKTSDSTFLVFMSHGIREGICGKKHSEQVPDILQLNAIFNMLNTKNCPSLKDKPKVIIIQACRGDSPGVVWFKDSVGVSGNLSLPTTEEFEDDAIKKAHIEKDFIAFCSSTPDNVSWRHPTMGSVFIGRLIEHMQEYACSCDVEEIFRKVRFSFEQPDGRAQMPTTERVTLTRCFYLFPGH

Structure (SMILES) = Cc1cccc(-c2ccc([C@@H]3[C@@H](CO)N4CCCCN(S(=O)(=O)c5ccccc5C(F)(F)F)C[C@@H]34)cc2)c1C; target = Insulin-degrading enzyme (IDE, Homo sapiens, UniProt P14735); Ki = 4.3 nM
Structure (SMILES) = Cc1cc(OCCCN2CCN(c3cccc4sccc34)CC2)ccc1CN1CCCCC1; target = 5-hydroxytryptamine receptor 2A; test = cell-free assay; Ki = 286 nM
Structure (SMILES) = COc1ccc(/C(C)=N/NC(=O)CSc2nc3ccccc3c(=O)n2CCc2ccc(S(N)(=O)=O)cc2)cc1; target = CA12; test = enzyme activity, inhibitor, stopped-flow; Ki = 57.5 nM
Structure (SMILES) = Fc1cc(CN2CCOCC2)ccc1OCCCN1CCN(c2cccc3sccc23)CC1; target = 5-hydroxytryptamine receptor 2A; test = cell-free assay; Ki = 11.5 nM
Structure (SMILES) = CCCCCCCCCCN1C(=O)/C(=N\NC(=N)N)c2cc(C)ccc21; target = Penicillin-binding protein 1B (mrcB, Escherichia coli K-12, UniProt P02919); test = transglycosylation activity, inhibitor; setting = added: dansyl-lipid II; Ki = 2400 nM
Structure (SMILES) = Cc1ccccc1-c1cc(N2CCCCC2)ccc1N(C)C(=O)C(C)(C)c1cc(C(F)(F)F)cc(C(F)(F)F)c1; target = TACR1; test = binding; Ki = 35.5 nM
Structure (SMILES) = COc1cc(/C=C/c2cc(O)cc(O)c2)ccc1O; target = XDH; test = superoxide generation, inhibitor; setting = pH 10.0, 25 °C, added: xanthine; Ki = 36000 ± 3000 nM
Structure (SMILES) = Nc1nc2c(ncn2[C@@H]2O[C@H](COP(=O)(O)OP(=O)(O)O[C@H]3O[C@@H](CNC(=O)Cc4ccccc4)[C@@H](O)[C@@H](O)[C@@H]3F)[C@@H](O)[C@H]2O)c(=O)[nH]1; target = FUT6; test = enzyme activity, inhibitor; Ki = 4300 nM
Structure (SMILES) = Cc1ccccc1-c1cc(N2CCN(CCCN3C(=O)C=CC3=O)CC2)ccc1N(C)C(=O)C(C)(C)c1cc(C(F)(F)F)cc(C(F)(F)F)c1; target = TACR1; test = binding; Ki = 2.29 nM
Structure (SMILES) = C[C@H](CCC(=O)O)[C@H]1CC[C@H]2[C@@H]3[C@@H](OC(=O)c4cccnc4)C[C@H]4C[C@H](O)CC[C@]4(C)[C@H]3CC[C@]12C; target = Hepatic sodium/bile acid cotransporter (SLC10A1, Homo sapiens, UniProt Q14973); test = transporter uptake, inhibitor, radiometric; Ki = 11700 nM
Structure (SMILES) = Cc1ccccc1-c1cc(N2CCN(C(=O)[C@@H](N)CCCNC(=N)N)CC2)ccc1N(C)C(=O)C(C)(C)c1cc(C(F)(F)F)cc(C(F)(F)F)c1; target = TACR1; test = cell-free assay, BRET; setting = pH 6; Ki = 25.7 nM
Structure (SMILES) = Nc1nc2c([C@@H]3N[C@H](COP(=O)(O)O)[C@@H](O)[C@H]3O)c[nH]c2c(=O)[nH]1; target = Hypoxanthine-guanine-xanthine phosphoribosyltransferase; test = enzyme activity, inhibitor; setting = pH 7.4; Ki = 14 nM
Structure (SMILES) = N[C@@H](Cc1ccccc1)C(=O)NCC(=O)NCCOCCOCC(=O)NCC(=O)N1CCCC1; target = FAP; test = enzyme activity, inhibitor, fluorescence; setting = pH 7.5; Ki = 703000 nM
Structure (SMILES) = Nc1nc2c(ncn2[C@@H]2O[C@H](COP(=O)(O)OP(=O)(O)O[C@H]3O[C@@H](CNC(=O)c4ccc(-c5ccccc5)cc4)[C@@H](O)[C@@H](O)[C@@H]3F)[C@@H](O)[C@H]2O)c(=O)[nH]1; target = 4-galactosyl-N-acetylglucosaminide 3-alpha-L-fucosyltransferase 9 (FUT9, Homo sapiens, UniProt Q9Y231); test = enzyme activity, inhibitor; Ki = 630000 nM
Structure (SMILES) = O=C(Nc1cccc(-c2nn[nH]n2)c1)c1cc(-n2ccnn2)cc(C(F)(F)F)c1; target = Beta-lactamase CTX-M-14; test = enzyme activity, inhibitor, absorbance; setting = pH 7; Ki = 32700 nM
Structure (SMILES) = CCCCCCCCCCCCCC[C@@H](O)[C@@H](O)[C@H](CO[C@H]1O[C@H](CO)[C@H](O)[C@H](O)[C@H]1O)NC(=O)CCCCCCc1ccccc1; target = Cd1d1 (Mus musculus, UniProt P11609); test = competitive binding on microarray; setting = added: surface-printed ligand; Ki = 1700 ± 1100 nM
Structure (SMILES) = CN(C)c1ccc(C#CCOC(=O)[C@]2(C)C=C(C(=O)OC(C)(C)C)C(=O)CC2)cc1; target = MAPK8; test = ligand displacement, FP; Ki = 1300 nM
Structure (SMILES) = CCCCCCOc1ccc(C(=O)OCCN2CC=CCC2)cc1; target = CHRM4; test = ligand displacement, radioligand; setting = cell membranes; Ki = 9120 nM
Structure (SMILES) = Fc1cc(OCCCN2CCN(c3cccc4sccc34)CC2)ccc1CN1CCOCC1; target = 5-hydroxytryptamine receptor 2A; test = cell-free assay; Ki = 12 nM
Structure (SMILES) = COC(=O)[C@@]1(Cc2ccccc2)C=C(C(=O)OC(C)(C)C)C(=O)CC1; target = MAPK8; test = ligand displacement, FP; Ki = 1800 nM
Structure (SMILES) = Nc1nc2c(ncn2[C@@H]2O[C@H](COP(=O)(O)OP(=O)(O)O[C@H]3O[C@@H](CNC(=O)CCCc4ccccc4)[C@@H](O)[C@@H](O)[C@@H]3F)[C@@H](O)[C@H]2O)c(=O)[nH]1; target = FUT6; test = enzyme activity, inhibitor; Ki = 9700 nM
Structure (SMILES) = O=c1[nH]cnc2c(CN[C@@H](CO)CCP(=O)(O)O)c[nH]c12; target = Hypoxanthine-guanine-xanthine phosphoribosyltransferase; test = enzyme activity, inhibitor; setting = pH 7.4; Ki = 23 nM
Structure (SMILES) = COc1ccc(/C=C/c2cc(O)cc(O)c2)cc1O; target = XDH; test = superoxide generation, inhibitor; setting = pH 10.0, 25 °C, added: xanthine; Ki = 2400 ± 200 nM
Structure (SMILES) = COCCOc1cc2ncnc(Nc3cccc(-c4cn(Cc5ccc(S(N)(=O)=O)cc5)nn4)c3)c2cc1OCCOC; target = CA12; test = enzyme activity, inhibitor, stopped-flow; Ki = 6 nM
Structure (SMILES) = O=C(Nc1cccc(-c2nn[nH]n2)c1)c1cc(-c2ccncc2)cc(C(F)(F)F)c1; target = Beta-lactamase CTX-M-14; test = enzyme activity, inhibitor, absorbance; setting = pH 7; Ki = 18500 nM
Structure (SMILES) = CC(C)CNC(=O)[C@@H](NC[C@@H](O)[C@H](Cc1ccccc1)NC(=O)c1cc(C(=O)N[C@H](C)c2ccccc2)cc(N(C)S(C)(=O)=O)c1)[C@H](C)O; target = BACE2; Ki = 14.6 ± 2.9 nM
Structure (SMILES) = O=C1Nc2ccccc2N(C(=O)CN2CCC(CCCCN3CCN(CCOC(=O)C4c5ccccc5Oc5ccccc54)CC3)CC2)c2ccccc21; target = CHRM4; test = ligand displacement, radioligand; Ki = 10.2 nM
Structure (SMILES) = COc1ccc2nc3cc(Cl)ccc3c(NCCCCc3c(N)nc(N)nc3N)c2c1; target = Muscleblind-like protein 1 with (CUG)12 RNA; test = MBNL1-RNA binding, gel mobility shift; setting = no tRNA, added: (CUG)12 RNA, 1000 nM MBNL1; Ki = 5500 ± 1400 nM
Structure (SMILES) = CCC(=O)NCc1cc(C(=O)NCCN2CCN(CCCCC3CCN(CC(=O)N4c5ccccc5NC(=O)c5ccccc54)CC3)CC2)cc(C(=O)NCCN2CCN(CCOC(=O)C3c4ccccc4Oc4ccccc43)CC2)c1; target = CHRM4; test = ligand displacement, radioligand; Ki = 5.13 nM
Structure (SMILES) = Clc1cc(CN2CCCCC2)ccc1OCCCN1CCN(c2cccc3sccc23)CC1; target = 5-hydroxytryptamine receptor 2A; test = cell-free assay; Ki = 153 nM
Structure (SMILES) = CC(=O)N[C@@H](C)C(=O)N[C@@H](CC(=O)O)C(=O)N[C@@H](CCCNC(=N)N)C(=O)N[C@H](C(=O)N[C@H](C=O)CC(=O)O)[C@@H](C)O; target = CASP1; test = enzyme activity, inhibitor, fluorescence; setting = pH 7; Ki = 1480 nM
Structure (SMILES) = Cc1cc(C(=O)N[C@@H](Cc2ccccc2)[C@H](O)CN[C@H](C(=O)NCC(C)C)[C@H](C)O)cc(C(=O)N(C)[C@H](C)c2ccccc2)c1; target = BACE2; Ki = 1 ± 0.15 nM
Structure (SMILES) = CNc1ccccc1C(=O)O[C@H]1[C@@H](O)[C@H](n2ccc(N)nc2=O)O[C@@H]1COP(=O)(O)OP(=O)(O)O; target = Adcy2/ADCY5, C1/C2 domains (Rattus norvegicus, UniProt P26769+P30803); test = enzyme activity, inhibitor; setting = added: 10 mM MnCl2, 100 µM forskolin, Gsα-GTPγS; Ki = 140 ± 22 nM
Structure (SMILES) = O=C(Nc1cccc(-c2nn[nH]n2)c1)c1cc(-c2nn[nH]n2)cc(C(F)(F)F)c1; target = Beta-lactamase CTX-M-14; test = enzyme activity, inhibitor, absorbance; setting = pH 7; Ki = 82000 nM
Structure (SMILES) = CN(C)CCNC(=O)c1cccc2c(NCCCCc3c(N)nc(N)nc3N)c3ccccc3nc12; target = Muscleblind-like protein 1 with (CUG)12 RNA; test = MBNL1-RNA binding, gel mobility shift; setting = no tRNA, added: (CUG)12 RNA, 1000 nM MBNL1; Ki = 18000 ± 5000 nM
Structure (SMILES) = CC(C)C[C@@H](NC(=O)[C@@H](CCCCN)NC(=O)CNC(=O)CNC(=O)[C@@H]1CSSC[C@H](N)C(=O)N2CCC[C@H]2C(=O)N[C@@H](CC(N)=O)C(=O)NCC(=O)N[C@@H](CCCNC(=N)N)C(=O)N1)C(=O)N[C@H](C)C(=O)N[C@H](CCCCN)C(=O)N[C@H](CC(C)C)C(=O)N[C@H](C)C(=O)N[C@H](CCCCN)C(=O)N[C@H](CCCCN)C(=O)N[C@H](CC(C)C)C(=O)N[C@H](C)C(=O)N[C@H](CCCCN)C(=O)N[C@H](CC(C)C)C(=O)N[C@H](C)C(=O)N[C@H](CCCCN)C(=O)O; target = Aminopeptidase N (Rattus norvegicus, UniProt P15684); test = enzyme activity, competitive inhibitor; setting = added: L-leucine p-nitroanilide; Ki = 7000 ± 3000 nM
Structure (SMILES) = Clc1cc(OCCCN2CCN(c3cccc4sccc34)CC2)ccc1CN1CCOCC1; target = 5-hydroxytryptamine receptor 1A (Htr1a, Rattus norvegicus, UniProt P19327); test = cell-free assay, radioligand; Ki = 146 nM
Structure (SMILES) = CC(=O)N[C@@H](Cc1ccccc1)C(=O)N[C@@H](CC(=O)O)C(=O)N[C@H](C(=O)N1CCC[C@H]1C(=O)N[C@H](C=O)CC(=O)O)C(C)C; target = CASP1; test = enzyme activity, inhibitor, fluorescence; setting = pH 7; Ki = 45.7 nM
Structure (SMILES) = N#C[C@@H]1CCCN1C(=O)CNC(=O)c1ccnc2ccc(/C=C/C(=O)NCc3cn(CCOCCOCCOCCNC(=O)CCCC[C@@H]4SC[C@@H]5NC(=O)N[C@@H]54)nn3)cc12; target = FAP; test = enzyme activity, inhibitor, fluorescence; setting = with preincubation; Ki = 3.8 nM

Excerpt of the above:
Structure (SMILES) = Cc1cccc(-c2ccc([C@@H]3[C@@H](CO)N4CCCCN(S(=O)(=O)c5ccccc5C(F)(F)F)C[C@@H]34)cc2)c1C; target = Insulin-degrading enzyme (IDE, Homo sapiens, UniProt P14735); Ki = 4.3 nM
Structure (SMILES) = Cc1cc(OCCCN2CCN(c3cccc4sccc34)CC2)ccc1CN1CCCCC1; target = 5-hydroxytryptamine receptor 2A; test = cell-free assay; Ki = 286 nM
